# Assay results collected from several papers.
# Each numbered part is a random draw from the data of one study; scales do not carry over between parts. “And” joins repeats or separate records; there may be more than shown.
# UniProt Q6DT37, sequence (whole entry, looked up): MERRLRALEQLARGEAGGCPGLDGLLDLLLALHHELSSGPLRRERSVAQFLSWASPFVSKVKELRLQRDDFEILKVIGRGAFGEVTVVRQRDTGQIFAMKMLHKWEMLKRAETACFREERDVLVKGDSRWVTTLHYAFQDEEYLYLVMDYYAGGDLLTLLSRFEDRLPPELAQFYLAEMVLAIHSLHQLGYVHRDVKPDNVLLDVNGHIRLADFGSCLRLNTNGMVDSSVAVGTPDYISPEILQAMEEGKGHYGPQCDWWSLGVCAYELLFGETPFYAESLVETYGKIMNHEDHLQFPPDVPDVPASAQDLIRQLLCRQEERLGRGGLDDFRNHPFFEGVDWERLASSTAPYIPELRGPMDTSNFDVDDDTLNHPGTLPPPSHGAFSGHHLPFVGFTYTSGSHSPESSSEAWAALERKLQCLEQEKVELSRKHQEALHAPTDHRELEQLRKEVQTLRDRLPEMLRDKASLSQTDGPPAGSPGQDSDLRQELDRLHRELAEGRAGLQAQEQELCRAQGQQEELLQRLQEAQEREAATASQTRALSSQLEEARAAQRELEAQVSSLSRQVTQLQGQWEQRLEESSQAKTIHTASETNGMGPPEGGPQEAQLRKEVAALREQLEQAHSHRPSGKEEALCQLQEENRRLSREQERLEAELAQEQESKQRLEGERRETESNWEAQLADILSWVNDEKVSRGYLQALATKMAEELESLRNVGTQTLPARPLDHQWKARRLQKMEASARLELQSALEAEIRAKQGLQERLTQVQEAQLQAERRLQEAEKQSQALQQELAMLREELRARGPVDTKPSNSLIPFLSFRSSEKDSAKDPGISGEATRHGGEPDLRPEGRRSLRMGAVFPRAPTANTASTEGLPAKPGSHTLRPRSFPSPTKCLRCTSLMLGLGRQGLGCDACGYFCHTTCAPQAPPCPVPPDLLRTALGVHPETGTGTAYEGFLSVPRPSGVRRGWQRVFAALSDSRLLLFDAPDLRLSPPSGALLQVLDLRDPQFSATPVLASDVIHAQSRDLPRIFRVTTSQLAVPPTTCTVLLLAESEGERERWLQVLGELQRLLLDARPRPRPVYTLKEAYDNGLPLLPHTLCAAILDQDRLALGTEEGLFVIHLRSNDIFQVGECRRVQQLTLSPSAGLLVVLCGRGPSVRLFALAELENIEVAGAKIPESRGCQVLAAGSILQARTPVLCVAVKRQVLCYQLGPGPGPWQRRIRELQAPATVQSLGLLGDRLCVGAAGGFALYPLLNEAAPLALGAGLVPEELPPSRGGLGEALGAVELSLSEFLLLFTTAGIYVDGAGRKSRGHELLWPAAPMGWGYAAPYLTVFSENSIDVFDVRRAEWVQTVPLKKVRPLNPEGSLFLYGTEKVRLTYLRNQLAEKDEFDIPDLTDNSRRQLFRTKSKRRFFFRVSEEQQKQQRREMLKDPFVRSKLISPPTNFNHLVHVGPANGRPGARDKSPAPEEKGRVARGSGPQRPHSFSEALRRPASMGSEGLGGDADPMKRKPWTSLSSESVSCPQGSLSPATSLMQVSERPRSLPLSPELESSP
# UniProt Q5S007, sequence (whole entry, looked up): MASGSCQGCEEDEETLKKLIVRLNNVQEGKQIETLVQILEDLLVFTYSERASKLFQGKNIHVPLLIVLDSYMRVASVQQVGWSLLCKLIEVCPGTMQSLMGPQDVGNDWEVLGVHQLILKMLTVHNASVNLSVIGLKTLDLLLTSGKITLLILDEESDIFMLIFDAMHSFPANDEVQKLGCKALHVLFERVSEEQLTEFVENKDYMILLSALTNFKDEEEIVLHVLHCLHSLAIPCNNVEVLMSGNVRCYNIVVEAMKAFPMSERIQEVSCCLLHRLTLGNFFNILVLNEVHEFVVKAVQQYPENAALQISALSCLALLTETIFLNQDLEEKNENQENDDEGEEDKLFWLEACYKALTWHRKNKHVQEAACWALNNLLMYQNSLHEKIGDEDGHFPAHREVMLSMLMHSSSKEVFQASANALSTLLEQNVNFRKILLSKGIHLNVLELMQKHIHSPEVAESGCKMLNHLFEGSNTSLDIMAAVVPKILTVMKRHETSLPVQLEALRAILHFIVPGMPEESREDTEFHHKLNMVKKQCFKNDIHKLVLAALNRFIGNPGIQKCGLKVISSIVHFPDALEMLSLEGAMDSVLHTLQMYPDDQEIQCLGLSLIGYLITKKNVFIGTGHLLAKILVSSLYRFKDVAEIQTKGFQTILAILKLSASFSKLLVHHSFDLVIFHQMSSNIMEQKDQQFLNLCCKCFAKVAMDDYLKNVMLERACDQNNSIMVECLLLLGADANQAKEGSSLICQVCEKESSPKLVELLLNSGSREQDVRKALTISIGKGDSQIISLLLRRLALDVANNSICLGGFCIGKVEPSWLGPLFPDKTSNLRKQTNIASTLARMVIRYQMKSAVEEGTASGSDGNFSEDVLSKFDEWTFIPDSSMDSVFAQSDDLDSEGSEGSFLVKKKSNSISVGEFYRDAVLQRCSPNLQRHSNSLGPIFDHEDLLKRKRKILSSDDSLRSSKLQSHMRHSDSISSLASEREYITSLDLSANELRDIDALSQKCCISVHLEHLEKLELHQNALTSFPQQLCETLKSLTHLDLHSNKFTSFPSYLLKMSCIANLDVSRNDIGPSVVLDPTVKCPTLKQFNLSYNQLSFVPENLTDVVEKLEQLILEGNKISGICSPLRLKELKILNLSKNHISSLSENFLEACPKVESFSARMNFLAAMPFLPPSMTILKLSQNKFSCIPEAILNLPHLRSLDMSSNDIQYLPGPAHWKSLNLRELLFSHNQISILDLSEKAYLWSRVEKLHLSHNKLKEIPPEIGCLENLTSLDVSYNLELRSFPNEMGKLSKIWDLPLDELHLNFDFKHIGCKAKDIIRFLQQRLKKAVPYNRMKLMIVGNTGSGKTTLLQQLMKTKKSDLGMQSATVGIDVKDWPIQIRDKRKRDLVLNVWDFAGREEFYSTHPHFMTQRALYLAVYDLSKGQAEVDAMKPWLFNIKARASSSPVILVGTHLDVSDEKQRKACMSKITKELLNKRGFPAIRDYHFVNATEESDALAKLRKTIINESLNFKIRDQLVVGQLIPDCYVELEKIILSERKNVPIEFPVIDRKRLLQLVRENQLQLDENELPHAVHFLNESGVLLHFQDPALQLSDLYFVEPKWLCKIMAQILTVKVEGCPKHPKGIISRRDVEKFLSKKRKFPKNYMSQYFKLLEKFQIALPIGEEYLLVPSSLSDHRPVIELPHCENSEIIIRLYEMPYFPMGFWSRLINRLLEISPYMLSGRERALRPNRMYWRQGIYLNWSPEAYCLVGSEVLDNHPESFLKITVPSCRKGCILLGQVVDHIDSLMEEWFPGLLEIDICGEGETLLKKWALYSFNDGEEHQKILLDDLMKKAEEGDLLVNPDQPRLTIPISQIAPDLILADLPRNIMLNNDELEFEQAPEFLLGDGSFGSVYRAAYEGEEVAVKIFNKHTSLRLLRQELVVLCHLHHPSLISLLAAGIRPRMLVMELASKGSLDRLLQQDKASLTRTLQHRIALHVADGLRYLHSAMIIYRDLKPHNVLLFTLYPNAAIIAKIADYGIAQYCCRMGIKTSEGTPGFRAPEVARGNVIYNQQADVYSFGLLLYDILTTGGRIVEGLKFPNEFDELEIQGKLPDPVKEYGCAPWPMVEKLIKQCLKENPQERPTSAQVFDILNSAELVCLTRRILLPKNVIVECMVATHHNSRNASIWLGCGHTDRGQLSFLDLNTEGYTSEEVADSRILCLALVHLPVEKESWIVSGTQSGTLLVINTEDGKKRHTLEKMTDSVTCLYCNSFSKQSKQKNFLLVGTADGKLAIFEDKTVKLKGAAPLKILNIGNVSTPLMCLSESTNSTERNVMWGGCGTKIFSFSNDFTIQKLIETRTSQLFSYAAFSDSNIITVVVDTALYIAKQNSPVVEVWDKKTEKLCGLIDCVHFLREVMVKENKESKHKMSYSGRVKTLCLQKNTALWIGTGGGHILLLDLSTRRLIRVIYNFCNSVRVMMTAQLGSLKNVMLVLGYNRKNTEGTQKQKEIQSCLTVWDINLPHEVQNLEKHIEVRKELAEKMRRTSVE
# UniProt P42685, sequence (whole entry, looked up): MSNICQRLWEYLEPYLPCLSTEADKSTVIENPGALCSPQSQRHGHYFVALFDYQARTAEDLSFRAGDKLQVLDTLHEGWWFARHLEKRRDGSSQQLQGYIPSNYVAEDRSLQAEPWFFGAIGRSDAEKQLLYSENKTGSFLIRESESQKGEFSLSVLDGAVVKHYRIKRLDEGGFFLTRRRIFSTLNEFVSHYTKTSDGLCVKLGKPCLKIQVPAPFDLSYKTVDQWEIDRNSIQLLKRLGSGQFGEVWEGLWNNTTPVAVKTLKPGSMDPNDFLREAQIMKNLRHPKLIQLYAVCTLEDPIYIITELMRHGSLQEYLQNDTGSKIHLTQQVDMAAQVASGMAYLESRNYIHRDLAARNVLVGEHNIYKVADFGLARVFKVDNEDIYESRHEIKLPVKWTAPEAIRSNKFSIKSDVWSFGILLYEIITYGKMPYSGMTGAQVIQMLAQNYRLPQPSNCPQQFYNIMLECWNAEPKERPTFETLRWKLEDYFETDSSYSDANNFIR
# UniProt P37023, sequence (whole entry, looked up): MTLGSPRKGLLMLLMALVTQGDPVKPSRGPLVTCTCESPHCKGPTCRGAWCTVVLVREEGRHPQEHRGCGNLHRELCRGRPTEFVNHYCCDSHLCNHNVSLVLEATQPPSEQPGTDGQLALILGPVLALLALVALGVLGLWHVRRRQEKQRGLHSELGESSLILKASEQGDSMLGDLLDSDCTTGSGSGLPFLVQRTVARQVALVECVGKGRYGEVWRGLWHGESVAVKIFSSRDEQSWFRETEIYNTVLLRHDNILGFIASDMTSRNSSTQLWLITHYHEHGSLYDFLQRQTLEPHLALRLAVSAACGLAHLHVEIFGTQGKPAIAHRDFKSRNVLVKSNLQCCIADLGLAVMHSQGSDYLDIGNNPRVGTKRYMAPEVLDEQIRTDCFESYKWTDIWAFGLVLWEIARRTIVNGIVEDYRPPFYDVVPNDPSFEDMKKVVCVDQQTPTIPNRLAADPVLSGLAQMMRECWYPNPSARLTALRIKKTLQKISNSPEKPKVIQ

# Set 1
# Compound: Cn1nc(C(F)(F)F)cc1-c1cnc(N2CCc3cc(S(=O)(=O)Nc4c(F)cc(Cl)cc4F)cc(N4CCCC4=O)c32)nc1
# Concentration: 1 µM
target,effect on,method,remaining binding
"STK32B (Homo sapiens, UniProt Q9NY57)",cell-free assay,competition with immobilised ligand,95%
"MYLK3 (Homo sapiens, UniProt Q32MK0)",cell-free assay,competition with immobilised ligand,84%
"CDC42BPG (Homo sapiens, UniProt Q6DT37)",,competition binding,100%
"NTRK3 (Homo sapiens, UniProt Q16288)",cell-free assay,competition with immobilised ligand,98%
"RIOK1 (Homo sapiens, UniProt Q9BRS2)",cell-free assay,competition with immobilised ligand,96%
"LRRK2 (Homo sapiens, UniProt Q5S007)",cell-free assay,competition with immobilised ligand,79%
"WNK1 (Homo sapiens, UniProt Q9H4A3)",cell-free assay,competition with immobilised ligand,98%
"CHEK2 (Homo sapiens, UniProt O96017)",cell-free assay,competition with immobilised ligand,100%
"CDK18 (Homo sapiens, UniProt Q07002)",cell-free assay,competition with immobilised ligand,100%
"PRKAA1 (Homo sapiens, UniProt Q13131)",cell-free assay,competition with immobilised ligand,98%
"FGR (Homo sapiens, UniProt P09769)",cell-free assay,competition with immobilised ligand,90%
"DYRK2 (Homo sapiens, UniProt Q92630)",cell-free assay,competition with immobilised ligand,87%
"ALK (Homo sapiens, UniProt Q9UM73, L1196M)",cell-free assay,competition with immobilised ligand,78%
"MAP3K20 (Homo sapiens, UniProt Q9NYL2)",cell-free assay,competition with immobilised ligand,98%
"BRSK2 (Homo sapiens, UniProt Q8IWQ3)",cell-free assay,competition with immobilised ligand,73%
"CAMK1G (Homo sapiens, UniProt Q96NX5)",cell-free assay,competition with immobilised ligand,100%
"ACVRL1 (Homo sapiens, UniProt P37023)",binding,competition with immobilised ligand,87%
"DCLK1 (Homo sapiens, UniProt O15075)",cell-free assay,competition with immobilised ligand,93%
"ULK1 (Homo sapiens, UniProt O75385)",cell-free assay,competition with immobilised ligand,79%
"Tyrosine-protein kinase ABL1, phosphorylated (ABL1, Homo sapiens, UniProt P00519, H396P)",cell-free assay,competition with immobilised ligand,87%
"FRK (Homo sapiens, UniProt P42685)",cell-free assay,competition with immobilised ligand,83%
"Mast/stem cell growth factor receptor Kit, autoinhibited (KIT, Homo sapiens, UniProt P10721)",cell-free assay,competition with immobilised ligand,91%

# Set 2
# Host: mouse
# Sample: microsomes or S9
# Concentration: 2 µM
# Time: 0.5 h
Compound,remaining compound [%]
CC1(COC(=O)Nc2ccc(Cl)cc2)CCC(C(C)(C)C)=NO1 (centres unmarked),3.66
CN(C)CCCn1c(-c2ccccc2)c(-c2ccccc2)c2c1ncn1nc(-c3ccncc3)nc21,85.1
Cc1ccc2c(-c3cn4c(C)c(C)sc4n3)c(C)[nH]c2c1,0.118
Cn1cc(-c2n[nH]c(=O)c3ccccc23)c2ccccc21,0.0403
CSc1cc(=O)oc2c(Cl)ccc(Cl)c12,> 99
CCOC(=O)Cn1c(C(=O)OCC)cc2cc(NS(=O)(=O)c3ccc(OC)c(OC)c3)ccc21,0.00951

# Set 3
# Cell line: mouse MPNST tumor cells
# Method: high-content immunofluorescence imaging
# Item: nuclear SOX9
# Concentration: 10 µM
# Time: 12 h
# Notes: mean of 2 replicates
# Baseline: DMSO control
# Reading: higher = more nuclear SOX9
Structure (SMILES),nuclear SOX9 intensity
COc1ccc(-c2nc(-c3ccc(-c4cccc(Cl)c4)o3)[nH]c2-c2ccc(OC)cc2)cc1,128 % of DMSO
Cc1cc(OCC(=O)O)cc(C)c1Cc1ccc(O)c(C(C)C)c1,105 % of DMSO
O=C(Nc1ccc(Cl)c(Cl)c1)Nc1ccc(Cl)c(Cl)c1,105 % of DMSO
C[C@@H](NCCCc1cccc(C(F)(F)F)c1)c1cccc2ccccc12,152 % of DMSO
c1ccc(CNCc2ccc(CN3CCCNCCNCCCNCC3)cc2)nc1,93.4 % of DMSO
C#C[C@]1(OC(C)=O)CC[C@H]2[C@@H]3CCC4=CC(=NO)CC[C@@H]4[C@H]3CC[C@@]21CC (mixture of isomers),105 % of DMSO
N=C(N)NCc1cccc(I)c1,102 % of DMSO
COC(=O)/C=C/c1cccc(N(Cc2ccc(-c3ccc(N(C)C)cc3)cc2)C(=O)C2CCCCC2)c1,111 % of DMSO

# Set 4
# Compound: CC(C)C[C@@H]1NC(=O)[C@@H](N(C)C(=O)[C@H](CC2CCC2)NC(=O)[C@@H]2C[C@@H](F)CN2C(=O)C2(C(F)(F)F)CC(F)(F)C2)CCCCNC(=O)C2(CC2)NC(=O)[C@H](Cc2cc(Cl)ccc2Cl)N(C)C1=O
# Method: flow cytometry
cell line,concentration,time,cleaved PARP positive cells
NCI-H82,2000 nM,72 h,4.37% and 6.27% and 7.04%
human CD34+ HSPC,300 nM,24 h,0.83% and 0.53%
A549,20 nM,72 h,0.73% and 0.17% and 0.21%

# Set 5
# Organism: Sarcocystis neurona
# Effect on: parasite growth
# Concentration: 10 µM
# Time: 96 h
# Baseline: untreated
Structure (SMILES),log2 fold change
CC(COc1ccccc1)N(CCCl)Cc1ccccc1 (centres unmarked),0.34
CC(c1cc2ccccc2s1)N(O)C(N)=O (centres unmarked),0.59
C[C@@H]1C[C@H]2[C@@H]3CCC4=CC(=O)C=C[C@]4(C)[C@@]3(F)[C@@H](O)C[C@]2(C)[C@H]1C(=O)CO,-0.11
CC(C)NCC(O)COc1ccc(CC(N)=O)cc1 (centres unmarked),-0.62
Cc1[nH]c(=O)c(C#N)cc1-c1ccncc1,0.37

# Some of these lines once more (set 3):
Structure (SMILES),nuclear SOX9 intensity
Cc1cc(OCC(=O)O)cc(C)c1Cc1ccc(O)c(C(C)C)c1,105 % of DMSO
O=C(Nc1ccc(Cl)c(Cl)c1)Nc1ccc(Cl)c(Cl)c1,105 % of DMSO
C[C@@H](NCCCc1cccc(C(F)(F)F)c1)c1cccc2ccccc12,152 % of DMSO
c1ccc(CNCc2ccc(CN3CCCNCCNCCCNCC3)cc2)nc1,93.4 % of DMSO
C#C[C@]1(OC(C)=O)CC[C@H]2[C@@H]3CCC4=CC(=NO)CC[C@@H]4[C@H]3CC[C@@]21CC (mixture of isomers),105 % of DMSO
N=C(N)NCc1cccc(I)c1,102 % of DMSO
COC(=O)/C=C/c1cccc(N(Cc2ccc(-c3ccc(N(C)C)cc3)cc2)C(=O)C2CCCCC2)c1,111 % of DMSO
